Experimental data gathered from unrelated publications.
A part holds a random share of what one study measured. Substitutions count along the parent as printed.

Set 1 — target: CCNB2, cyclin fold, Cln2 fusion (human); technique: yeast growth competition, sequencing; sample: yeast; setting: strong parent motif; relative to: not given; direction: higher = stronger binding; endpoint: normalised enrichment score; starting sequence: viral docking peptide; TSVRRALFTGGSD
TSVSRALFTGGSD [R4S]: 0.578
TGVRRALFTGGSD [S2G]: 0.752
TSVRRALFTGGDD [S12D]: 1.18
TSVARALFTGGSD [R4A]: 0.296
TSVRHALFTGGSD [R5H]: 0.413
TSVRRALFTGYSD [G11Y]: 0.284
TSVRRALFTGTSD [G11T]: 1.04
TSVRRALPTGGSD [F8P]: 0.32
TSVRRALFEGGSD [T9E]: 0.717
TSVRQALFTGGSD [R5Q]: 0.508
TSWRRALFTGGSD [V3W]: 0.245
TSVRRACFTGGSD [L7C]: 0.165
TSVRRALFTGGWD [S12W]: 0.805
TIVRRALFTGGSD [S2I]: 0.407
TSVRRANFTGGSD [L7N]: 0.399
TSVRGALFTGGSD [R5G]: 0.163
TSVRRSLFTGGSD [A6S]: 0.224
TCVRRALFTGGSD [S2C]: 0.689
TSVRRALFTGDSD [G11D]: 1.39
TSVRRALFTGGVD [S12V]: 0.746
TSVRRALFTVGSD [G10V]: 0.385
TSVRRALDTGGSD [F8D]: 0.317
TLVRRALFTGGSD [S2L]: 0.592
TSVRRALFTGGYD [S12Y]: 0.946
TSVGRALFTGGSD [R4G]: -0.41

Set 2 — technique: universal PBM; form: double-stranded DNA, one strand shown; sample: in vitro; concentration: 600 nM; direction: higher = stronger binding; endpoint: E-score
Target: Sal-like protein 4, full length isoform A (SALL4, Homo sapiens, UniProt Q9UJQ4, residues 1-1053)
Chain of UniProt Q9UJQ4 (whole entry, looked up): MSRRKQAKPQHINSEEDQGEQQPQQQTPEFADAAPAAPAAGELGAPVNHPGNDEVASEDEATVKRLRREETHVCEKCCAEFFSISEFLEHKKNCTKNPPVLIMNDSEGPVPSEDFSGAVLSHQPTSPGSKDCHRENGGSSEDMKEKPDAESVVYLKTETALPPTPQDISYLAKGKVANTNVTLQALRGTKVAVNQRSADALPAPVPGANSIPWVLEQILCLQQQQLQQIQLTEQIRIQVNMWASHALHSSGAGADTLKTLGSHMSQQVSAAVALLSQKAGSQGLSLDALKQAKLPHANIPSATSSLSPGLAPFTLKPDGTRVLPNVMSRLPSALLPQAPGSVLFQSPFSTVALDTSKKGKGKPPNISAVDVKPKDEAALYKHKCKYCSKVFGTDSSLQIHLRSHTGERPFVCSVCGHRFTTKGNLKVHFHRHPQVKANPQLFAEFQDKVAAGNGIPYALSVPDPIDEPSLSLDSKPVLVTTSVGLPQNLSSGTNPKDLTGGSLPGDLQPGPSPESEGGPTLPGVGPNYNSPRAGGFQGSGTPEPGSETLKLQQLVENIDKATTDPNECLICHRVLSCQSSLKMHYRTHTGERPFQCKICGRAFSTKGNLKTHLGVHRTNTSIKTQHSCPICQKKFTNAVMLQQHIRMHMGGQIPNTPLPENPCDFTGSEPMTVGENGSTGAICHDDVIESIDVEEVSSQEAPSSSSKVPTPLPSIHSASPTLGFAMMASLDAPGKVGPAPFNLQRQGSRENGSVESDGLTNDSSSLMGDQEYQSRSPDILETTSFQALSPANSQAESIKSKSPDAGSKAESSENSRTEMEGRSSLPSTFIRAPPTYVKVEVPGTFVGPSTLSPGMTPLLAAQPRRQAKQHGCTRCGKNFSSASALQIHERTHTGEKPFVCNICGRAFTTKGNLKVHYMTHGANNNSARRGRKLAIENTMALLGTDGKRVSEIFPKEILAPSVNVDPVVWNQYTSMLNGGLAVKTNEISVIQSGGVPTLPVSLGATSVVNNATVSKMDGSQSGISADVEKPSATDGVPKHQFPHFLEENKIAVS
Setting: 8-mer, flanks averaged, mean of replicates
CAGCTTGC: -0.205
ACGTGAAA: 0.255
ATTAGTGC: 0.0977
ACTACCCG: -0.289
TAAATCTA: 0.206
GTTGCCGA: -0.171
AATCATTC: 0.229
ACACGTCC: -0.123

Set 3 — technique: RNA Bind-n-Seq; form: RNA; sample: in vitro; concentration: 20 nM; setting: 6-mer, flanks averaged, single round; added: 150 mM LiCl; relative to: input library; direction: higher = stronger binding; endpoint: 6-mer enrichment (R)
Target: TAR DNA-binding protein 43, full length, His tag (TARDBP, Homo sapiens, UniProt Q13148, residues 1-414)
CUGACA: 0.883
CAGCGG: 0.966
UCCCUC: 1.04
AACUGA: 0.796
UAGGUG: 1.21
UCGGAU: 0.95
GGGUCA: 0.99
CCAGGC: 0.929

Set 4 — technique: protein-binding microarray; form: double-stranded DNA, one strand shown; sample: in vitro; concentration: not given; direction: higher = stronger binding; endpoint: E-score
Target: Hepatocyte nuclear factor 3-beta, forkhead domain (FOXA2, Homo sapiens, UniProt Q9Y261, residues 142-269)
Setting: k-mer, scored over probes, only values ≥0.25
Construct (chain): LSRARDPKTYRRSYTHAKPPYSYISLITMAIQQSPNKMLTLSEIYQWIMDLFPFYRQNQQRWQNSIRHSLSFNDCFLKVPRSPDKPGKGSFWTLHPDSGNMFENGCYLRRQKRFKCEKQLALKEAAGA
AGTATACG: 0.279
AATATTAC: 0.322
CAATATCG: 0.281
ATCAAATA: 0.383
ACAACATA: 0.35
ATTACCAA: 0.281
CGTAATCA: 0.312
ATATGTAG: 0.331

Single results of other studies
MTGVMRGNY  binding (HLA class I histocompatibility antigen, A alpha chain, allele A*80:01 (Homo sapiens, UniProt P04439); peptide-MHC binding; peptide; concentration not given): inactive

A few entries again (set 1):
TSVRRALFEGGSD [T9E]: 0.717
TSVRRALFTGTSD [G11T]: 1.04
TSVRRALDTGGSD [F8D]: 0.317
TIVRRALFTGGSD [S2I]: 0.407
TSVRRALFTVGSD [G10V]: 0.385
TLVRRALFTGGSD [S2L]: 0.592
